# Measured values of several laboratories.
# Every numbered part comes from another study and shows a few of its results, in no order.

# Series 1 — method: competition protein-binding microarray; molecule type: double-stranded DNA, one strand shown; medium: in vitro; tested at: 2 µM; added: Pho4 competitor, 0.05 µM; direction: higher = stronger binding; constant ends, left off below: … GTCTTGATTCGCTTGACGCTGCTG
# Target: Centromere-binding protein 1, full length, His-tagged (CBF1, Saccharomyces cerevisiae, UniProt P17106, residues 1-351)
# UniProt P17106, sequence (whole entry, looked up): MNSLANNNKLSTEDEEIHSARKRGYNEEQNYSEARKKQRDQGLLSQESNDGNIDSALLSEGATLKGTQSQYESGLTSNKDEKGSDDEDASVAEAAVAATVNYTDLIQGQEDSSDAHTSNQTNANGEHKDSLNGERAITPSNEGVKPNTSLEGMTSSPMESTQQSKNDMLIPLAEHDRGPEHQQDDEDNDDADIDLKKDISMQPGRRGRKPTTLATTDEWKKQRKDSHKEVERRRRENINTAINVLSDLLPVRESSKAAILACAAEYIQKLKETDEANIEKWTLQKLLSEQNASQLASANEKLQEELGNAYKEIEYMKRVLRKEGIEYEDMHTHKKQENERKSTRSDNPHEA
# Setting: whole 60-bp probe, lowest competitor level
Strand,fluorescence intensity [a.u.]
CGTCCTAGTGATTGCCCTGTGGGTGCCATGAGGAAG,74.7
TAACCCCCTCCTACCCACGCTATTCTTCAAATTCCG,76
CTAACGAAGGTTTGGGACGTGGGTGACAAGCCAAGT,58.8
TCAATTTCGAACGGAAGCGTGCGGACTCTGAGTTTT,64.1
CGGCGGCAAGGTTGTGTCGTGATGGTCGTTGCATAG,66.4
GGTCATTTCTGACAACACGTGTTTTCTGCCACTGCT,2180
AAAGCGGTAATTTGGTGTGTGGGTGCAGATATCTAT,89.7
ATTTCATTATCCTGCCCCGTGGCAAGTATTTCTGTG,156
CTTTCCCGATCTTGGGACGTGGGTGTAGCACATTTG,78.9
CGTCCTAGCGATTGACGTGTGGGTGCCATGAGGAAG,78.1
TGCGCAACAACTTGACCCGTGGGTGTATGTCTAGAA,57.1
AGCTACGGAAACCGTCACACTTTTTTTCTGCAAGAA,95.4
CCGGTAATGGCGGAGCATGTGATGGAGGAATGGGCG,347
CGACTTGCGAGAAGACACGTGCGCGGAAGGAGCTTG,1110
GATTGGTTAAAATTGATCATGACAGACGTCTCATCC,76.2
AAGTCAAAACACCGTCACACGAAAACCATAACCTGT,92.9
GGTTTTCGATTGGGCCTCGTGATGGAACACATCAGC,300
AGCGCATCCCAGACACTCGTGTATCTAAATCCCAGT,92.3
GAAAAAAGAAATGGACACGTGTAGGTCAAGGCATTA,1240
CGTCCTAGTGATTGCATTGTGGGTGCCATGAGGAAG,86.7
CATACCCAACCTTGTAATGTGGGTGAAGATATTTGT,65.1
TTCAGCACAACCGACCACGTGAGACGAGGGTCGAAG,1520
AAAGCGGTAATTTGACCTGTGGGTGCAGATATCTAT,75.9
ACCTTAAACACTCACCACGTGCAAACAACAGAATAT,1480

# Series 2 — method: RNA Bind-n-Seq; molecule type: RNA; medium: in vitro; tested at: 200 nM; setting: whole 134-nt RNA, ends assumed; added: 150 mM LiCl; relative to: input library; direction: higher = stronger binding; all molecules: 7-deaza-guanosine replaces G
# Target: Fragile X messenger ribonucleoprotein 1, C-terminal low-complexity region (Fmr1, Mus musculus, UniProt P35922)
# Constant ends, left off below: GGGAGUUCUACAGUCCGACGAUC … UGGAAUUCUCGGGUGUCAAGG
Strand,log2 enrichment
CAAGUCCUGUGCUACACAUCGUAUGUACCGAAUCGGAAAAAAAGGUUUUUGGUGGAAAGUAUUAUGUUACGCCGUUCGGAUCUGCACUUC,-1.96
UUCCAACAGUUAUGGGAUCCCAGAACCUGCUCAUGCAUACGCUCAACCUCAGACCACAACUCCUCUACCUGCAGUUUCCGGUUCUCCUGG,1.42
UCCUCAAGUCCUGUGCUACACAUCGUAUGUACCGAAUCGGGGAGGAGGGAGGAAAGUAUUAUGUUACGCCGUUCGGAUCUGCACUUCCAG,-0.551
UGGGAGGUGGAUUUUGUUUAUUUUUUUAGCUCAUUUCCAGGGGUGGGAAUUUUUGUUUAAUAUGUGUCAUGAAUAAAGUUGUUUUUGAAA,-0.392
GCAGGAAGUAAAAACAAGUGGAAAUGCUUCGGAUAGUGGCAGGGGUGGGGGUUGCUAAGGAAAGGGUGGGAUGGGAGUGGGUAAAGAGUU,1.29
AGUCCUGUGCUACACAUCGUAUGUACCGAAUCGGGGUUUUGGGGUUUUGGGUUUUGGGAAAGUAUUAUGUUACGCCGUUCGGAUCUGCAC,-1.17
UGGGAGGUGGAUUUUGUUUAUUUUUUUAGCUCAUAUCCAGGGGUGGGAAUUUUUUUUUAAUAUGUGUCAUGAAUAAAGUUGUUUUUGAAA,0.699
AAGUCCUGUGCUACACAUCGUAUGUACCGAAUCGGGAAAAGGGGAAAAGGGAAAAGGAAAGUAUUAUGUUACGCCGUUCGGAUCUGCACU,0.143
ACCAUGCAGGUGGGCAUCUUUGGGAAGUGGGGCAAGGGGGGGAUUGGGAGGGGGGUAACACUUUGGGAACAGGUGGUCCCAGGUCGUUUC,1.11
GUCCUGUGCUACACAUCGUAUGUACCGAAUCGGGUUUUUUUGGGUGGGUUUUUUUGGGAAAGUAUUAUGUUACGCCGUUCGGAUCUGCAC,-0.472
CUCAAGUCCUGUGCUACACAUCGUAUGUACCGAAUCGGUUUUUGGUGGAAAGGAAAGUAUUAUGUUACGCCGUUCGGAUCUGCACUUCCA,0.0836

# Series 3 — method: RNA Bind-n-Seq; molecule type: RNA; medium: in vitro; tested at: 365 nM; relative to: no-protein control; direction: higher = stronger binding
# Target: RNA binding protein fox-1 homolog 2, RRM domain, GST-SBP tag (RBFOX2, Homo sapiens, UniProt O43251-10, residues 100-194)
# Setting: natural RNA segment, single round, ends assumed
# Constant ends, left off below: GGGAGUUCUACAGUCCGACGAUC … UGGAAUUCUCGGGUGCCAA
# Construct (chain): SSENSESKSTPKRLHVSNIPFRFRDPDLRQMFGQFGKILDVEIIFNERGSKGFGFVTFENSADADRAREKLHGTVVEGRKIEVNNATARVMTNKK
Strand,RBNS enrichment (R)
AAAAAAGGAAAAGGAAAAAGCAUGACAUUGUGUAUCGAUUUUUUGUUGUUGACCAAAAUCACACACAUGGAAACAUGUAAUUCAACAGAGUGGGAAAGCUAGCAGAUUCU,4.01
GAUGUCAGGGGCAACGGGGUAUCUUAGAAGCCUUAAAUGAGAGCUAAUAUAAUCCAGACAGCAAUGGUGUUAGUAUUUUUGGUCUGUGUACCCACGUGCCCAUGUAUAUG,0.518
GAGUUCCAGCUUUGACAGCCUGAUGACCUCCAUUUUCAUAUGAAUGAUGCCUGCACCCCCACACCUCUGACUCAUCCUAUGGGUGUUCCAAGGCACCCAAUGCUCCACCC,0.826
AUGUACUGUUAAUUUUUUUUAAUUAAAGUAUAUUAAAGGUUAAAUAAAACAUGACUGUGUCAGACUAUUAAGACUUGAGAAAGGGUUAGUUUUUUUCUUAGGCCUCCCUU,0.396
UCGUUCCUGCUUUUUCAUUGUCAUUAAAUUCUGUAGAAACCCAUUGUCAUUAGCUCCAAGUGUAAAUUUGGGUCAAGGAGACAGAAUAAUAAUGGGAAUCUCGGAGUUCG,0.417
AAUGUCCUUGGAAACAUAAAUGCCUGCCAAUAACAUGGAAUAUUGAAUUCGGGCAAUGUGAAUUGAUUAAUUAGAAAAGGGUCAAAAGAAAUACAAUGGAUGUGGAAACU,1.33
UGUAUUGCUUUUAAGAGAGCCAUCAGUUAGCUAUCAGAAUCUAGGUUGAUGCAUUUUUGUACUUAGCUGUACUGUGUGAUAUUUUUCAUUAUUUUAGGAUGCCAACAUGA,0.279
UUUGUUCUCAGCAUUUUCCUUUCUCUGUGAUCAUUGGCAUCCUGGGCGUUUCUUGCCCUCUGCUGACUACUGAUUGGAUUUUACCUAUGGCUUUCUGCAACUUGCUACUC,0.417
AUAUGGACUAUCCAUCGAACUUAACCUGUGUGGCUUCCAGCCCUCCCUUUACCAAAAGGGUCAAUGGACCUUUCUUUGCACUGUGUGACUUAAUCAACUAUAAAAGCUUA,0.368
CAACGUGGGCAAGUCAUUGUCCUCUGAGCUGCAGUUUCCUCAUCUGUCACAUCGCUACAGACAAGACCUCCCUGGAACCCUUCUGAUUGUCUUAGACACUGUGGUUGCAA,0.285
UGGGCCUUCUCAGCUCUCCACCCCCACCACUCUUGACUCAGGUGGUGUCCUUCUUCCUCAAGUCUUGACAAUUCCCGGGCCCUUCAGUCCCUGAGCAGUCUACUUCUGUG,0.383
GUCAUGCAUUGUUCCAUAGUCGCCCUCAUGGGGUCAUUUCAUGCCUCCAGGCGGGGCCCGGAAGUAGUAGUAGUAGUAGUAGUAGUAGUAGUAGUAGUAGUAGUAGUAGU,0.964

# Series 4 — method: universal PBM; molecule type: double-stranded DNA, one strand shown; medium: in vitro; tested at: 600 nM; direction: higher = stronger binding
# Target: Sal-like protein 4, full length isoform A (SALL4, Homo sapiens, UniProt Q9UJQ4, residues 1-1053)
# UniProt Q9UJQ4, sequence (whole entry, looked up): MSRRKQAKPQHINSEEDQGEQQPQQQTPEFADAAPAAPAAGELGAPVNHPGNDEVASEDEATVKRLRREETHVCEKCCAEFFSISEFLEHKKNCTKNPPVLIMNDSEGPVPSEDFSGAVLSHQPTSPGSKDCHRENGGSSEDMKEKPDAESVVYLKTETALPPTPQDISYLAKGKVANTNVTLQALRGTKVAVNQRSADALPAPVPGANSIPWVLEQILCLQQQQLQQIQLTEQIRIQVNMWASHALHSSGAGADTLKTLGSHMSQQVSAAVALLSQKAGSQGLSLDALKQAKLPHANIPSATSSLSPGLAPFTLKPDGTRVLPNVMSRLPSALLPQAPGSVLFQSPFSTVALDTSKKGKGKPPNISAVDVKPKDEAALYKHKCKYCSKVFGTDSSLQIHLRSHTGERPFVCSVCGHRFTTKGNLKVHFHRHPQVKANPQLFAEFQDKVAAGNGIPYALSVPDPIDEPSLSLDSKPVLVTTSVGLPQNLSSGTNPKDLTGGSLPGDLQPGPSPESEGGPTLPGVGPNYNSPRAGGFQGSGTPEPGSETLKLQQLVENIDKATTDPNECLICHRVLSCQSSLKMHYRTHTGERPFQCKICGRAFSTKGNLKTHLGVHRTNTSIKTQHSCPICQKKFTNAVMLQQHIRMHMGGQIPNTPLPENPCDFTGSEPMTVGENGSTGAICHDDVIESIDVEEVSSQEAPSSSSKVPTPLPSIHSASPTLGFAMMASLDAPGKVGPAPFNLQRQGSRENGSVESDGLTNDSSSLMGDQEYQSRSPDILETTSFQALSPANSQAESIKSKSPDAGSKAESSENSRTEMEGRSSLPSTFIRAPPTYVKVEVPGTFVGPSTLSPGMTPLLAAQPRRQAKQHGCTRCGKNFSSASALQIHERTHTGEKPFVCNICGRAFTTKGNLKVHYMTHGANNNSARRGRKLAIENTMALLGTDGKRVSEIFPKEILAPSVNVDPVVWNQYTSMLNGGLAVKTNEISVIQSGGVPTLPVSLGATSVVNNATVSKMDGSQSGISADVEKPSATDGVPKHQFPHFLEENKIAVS
# Setting: 8-mer, flanks averaged, mean of replicates
Strand,E-score
AGACTCTG,-0.0558
ATCGTCGG,-0.103
AACGGGCG,-0.193
CACTAGCC,-0.219
ACTAATCA,0.234
GGGGAATA,0.0505
ATGCAGAA,0.144
CTTGACTC,-0.122
CAATCATA,0.35
ATGTTGAA,0.193
CTCACGTA,-0.171
AAACCCGT,-0.163
TGTACCAA,0.00519
CACTTCTA,-0.0469
GTTGCGCA,-0.128
CACTTGGC,-0.0744
GCTGCCCA,-0.321
GAATACCA,0.166
AAGGTCGT,0.00494
AAGGAATC,-0.0817
AGCCGGTC,-0.292
CACAAGTA,0.133
CTCCCGCA,-0.18

# Repeated from above (series 4):
Strand,E-score
CACTTGGC,-0.0744
CTCACGTA,-0.171
CACAAGTA,0.133
AGACTCTG,-0.0558
